Experimental data of several laboratories.
Each numbered part is a random draw from the data of one study; scales do not carry over between parts.

Sample 1 — technique: protein binding microarray; molecule type: double-stranded DNA, one strand shown; matrix: in vitro; concentration: not given; reference: not given; reading: higher = stronger binding; quantity: E-score
Target: Histone acetyltransferase KAT6A, winged helix 2, GST fusion (KAT6A, Homo sapiens, UniProt Q92794, residues 85-181)
Notes: 8-mer, flanks averaged, mean of 2 arrays, mostly near background
Construct (chain): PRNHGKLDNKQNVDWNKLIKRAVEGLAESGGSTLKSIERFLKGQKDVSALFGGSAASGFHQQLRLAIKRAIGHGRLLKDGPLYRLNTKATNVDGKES
TCCCTAGA: 0.0458
GCCGAGGA: 0.14
AGCGGGAT: 0.0747
AATAAGAA: 0.162
TGCAGACA: 0.0559

Sample 2 — technique: universal PBM; molecule type: double-stranded DNA, one strand shown; matrix: in vitro; concentration: 600 nM; reading: higher = stronger binding; quantity: E-score
Target: Sal-like protein 4, full length isoform A (SALL4, Homo sapiens, UniProt Q9UJQ4, residues 1-1053)
UniProt Q9UJQ4, sequence (whole entry, looked up): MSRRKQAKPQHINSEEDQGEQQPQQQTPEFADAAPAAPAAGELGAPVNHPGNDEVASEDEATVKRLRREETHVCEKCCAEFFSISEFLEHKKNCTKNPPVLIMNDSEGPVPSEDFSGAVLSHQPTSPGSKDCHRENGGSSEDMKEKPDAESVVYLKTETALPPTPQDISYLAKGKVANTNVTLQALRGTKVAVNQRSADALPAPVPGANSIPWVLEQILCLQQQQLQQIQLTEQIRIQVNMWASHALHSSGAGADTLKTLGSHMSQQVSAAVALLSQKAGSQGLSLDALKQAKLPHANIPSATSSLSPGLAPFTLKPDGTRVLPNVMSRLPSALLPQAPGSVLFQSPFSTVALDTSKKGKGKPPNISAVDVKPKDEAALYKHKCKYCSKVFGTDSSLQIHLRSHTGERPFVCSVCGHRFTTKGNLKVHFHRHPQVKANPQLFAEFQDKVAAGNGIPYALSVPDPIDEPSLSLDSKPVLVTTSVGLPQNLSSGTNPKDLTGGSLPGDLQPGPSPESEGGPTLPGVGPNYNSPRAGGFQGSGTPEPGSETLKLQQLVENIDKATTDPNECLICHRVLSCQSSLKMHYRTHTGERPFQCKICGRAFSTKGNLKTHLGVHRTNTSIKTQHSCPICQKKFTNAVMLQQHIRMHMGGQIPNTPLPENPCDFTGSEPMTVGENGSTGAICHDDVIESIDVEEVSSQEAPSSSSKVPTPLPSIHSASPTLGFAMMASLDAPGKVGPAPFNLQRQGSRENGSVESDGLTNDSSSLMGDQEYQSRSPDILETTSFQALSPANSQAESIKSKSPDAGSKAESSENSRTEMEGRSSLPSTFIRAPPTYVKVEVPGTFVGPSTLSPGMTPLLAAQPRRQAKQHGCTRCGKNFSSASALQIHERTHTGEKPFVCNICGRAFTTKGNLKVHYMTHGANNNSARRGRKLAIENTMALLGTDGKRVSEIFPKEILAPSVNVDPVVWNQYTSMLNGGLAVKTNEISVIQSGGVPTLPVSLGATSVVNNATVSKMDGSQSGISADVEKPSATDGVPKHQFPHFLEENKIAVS
Notes: 8-mer, flanks averaged, mean of replicates
CCGGTGAC: -0.397
GTCCGGAC: -0.141
CGTCAAAG: 0.0403
AGAGGTTA: 0.224

Sample 3 — technique: protein-binding microarray; molecule type: double-stranded DNA, one strand shown; matrix: in vitro; concentration: 250 nM; notes: 60-bp whole probe; with: salmon DNA 0.4 mg/ml; reference: random background probes; reading: higher = stronger binding; quantity: log fluorescence
Target: Interferon regulatory factor 5, full length, phosphomimetic (IRF5, Homo sapiens, UniProt Q13568-2, residues 1-514, K96S/S451D/S453D/S456D/S462D)
GCCTAGCACTTACGACTGGGGACTGGGTTAGTGCTAGTCTTGATTCGCTTGACGCTGCTG: 0.218 z-score
GCCTAGCACTTAGAACTGAGACTGGAGTAGTGCTAGGTCTTGATTCGCTTGACGCTGCTG: -0.371 z-score
GCCTAGCACTTAGATTTCGGGACTGGATTGGTGCTAGTCTTGATTCGCTTGACGCTGCTG: 2.58 z-score
GCCTAGCACTTAGAACTGAGTTTCGAATAGTGCTAGGTCTTGATTCGCTTGACGCTGCTG: 4.81 z-score

Single results of other studies
PhoQ, residues 284 288 289 292 302 303 TVTVVA  fold induction (PhoP, residues 12 14 15 18 19 HLGGL (Escherichia coli, UniProt P23836); Sort-seq, refers to: YFP reporter; E. coli; PhoQ-PhoP variant library, with: 10 µM Mg2+; reference: high Mg2+ state, higher = stronger signaling): 2.34

Some of these lines once more (sample 3):
GCCTAGCACTTAGAACTGAGACTGGAGTAGTGCTAGGTCTTGATTCGCTTGACGCTGCTG: -0.371 z-score
GCCTAGCACTTAGATTTCGGGACTGGATTGGTGCTAGTCTTGATTCGCTTGACGCTGCTG: 2.58 z-score
